Measured values collected from several papers.
Numbered parts are unrelated; each lists some results of a single study.
Sequence of UniProt P28223 (whole entry, looked up): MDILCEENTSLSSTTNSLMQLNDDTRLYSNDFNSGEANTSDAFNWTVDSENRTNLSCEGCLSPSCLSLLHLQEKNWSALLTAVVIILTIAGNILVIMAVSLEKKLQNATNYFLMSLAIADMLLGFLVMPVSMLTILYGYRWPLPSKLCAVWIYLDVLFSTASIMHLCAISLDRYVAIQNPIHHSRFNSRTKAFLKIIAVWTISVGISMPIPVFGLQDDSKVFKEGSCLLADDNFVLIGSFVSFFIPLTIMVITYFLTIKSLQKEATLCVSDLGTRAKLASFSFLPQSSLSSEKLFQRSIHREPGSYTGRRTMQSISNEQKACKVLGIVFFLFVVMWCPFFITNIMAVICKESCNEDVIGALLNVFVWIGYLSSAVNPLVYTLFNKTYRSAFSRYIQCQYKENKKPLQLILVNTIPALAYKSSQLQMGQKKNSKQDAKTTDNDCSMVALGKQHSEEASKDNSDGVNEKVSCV

Block 1
Cell line: HH
Tested at: 2 µM
Time: 48 h
Reference: untreated
| Compound | viability [%] |
| --- | --- |
| CN([C@@H](Cc1ccc(OS(=O)(=O)c2cccc3cnccc23)cc1)C(=O)N1CCN(c2ccccc2)CC1)S(=O)(=O)c1cccc2cnccc12 | 76.4 |
| CO[C@H]1C[C@@H]2CC[C@@H](C)[C@@](O)(O2)C(=O)C(=O)N2CCCC[C@H]2C(=O)O[C@H]([C@H](C)C[C@@H]2CC[C@@H](OC(=O)C(C)(CO)CO)[C@H](OC)C2)CC(=O)[C@H](C)/C=C(\C)[C@@H](O)[C@@H](OC)C(=O)[C@H](C)C[C@H](C)/C=C/C=C/C=C/1C | 43.2 |
| COc1cc2c(c(OC)c1OC)-c1c(cc3c(c1OC)OCO3)C[C@@H](C)[C@@H](C)C2 | 97 |
| COc1cc2c(Oc3ccc(NC(=O)C4(C(=O)Nc5ccc(F)cc5)CC4)cc3F)ccnc2cc1OCCCN1CCOCC1 | 40.5 |
| Cc1nc(Nc2cnn(C3CCNCC3)c2)nc2c1N(C)C(=O)c1cc3ccccc3cc1N2C | 72.1 |
| N#C/C(=C(/N)Sc1ccc(N)cc1)c1ccccc1C(F)(F)F | 91.2 |

Block 2
Organism: Sarcocystis neurona
Observed: parasite growth
Tested at: 10 µM
Time: 96 h
| Structure (SMILES) | inhibition |
| --- | --- |
| Nc1nc(F)nc2c1ncn2[C@@H]1O[C@H](CO)[C@@H](O)[C@@H]1O | -9.3% |
| OC(Cn1cncn1)(Cn1cncn1)c1ccc(F)cc1F | -5.2% |
| Nc1nc(Cl)nc2c1ncn2[C@H]1C[C@H](O)[C@@H](CO)O1 | -13.7% |
| COC(=O)C1=C(C)NC(C)=C(C(=O)OCC(C)C)C1c1ccccc1[N+](=O)[O-] (stereo not shown) | -7.3% |
| C[C@H]1COc2c(C3(N)CC3)c(F)cc3c(=O)c(C(=O)O)cn1c23 | -10.2% |
| CNNCc1ccc(C(=O)NC(C)C)cc1 | -7.3% |
| C[C@]12C[C@H](O)[C@H]3[C@@H](CCC4=CC(=O)CC[C@@]43C)[C@@H]1CC[C@@H]2C(=O)CO | -3.8% |
| Cc1ccc(C)c(OCCCC(C)(C)C(=O)O)c1 | -3.4% |

Further values, each from its own experiment
| Compound | target or system | assay | test system | setting | measurement | result |
| --- | --- | --- | --- | --- | --- | --- |
| COc1ccc(-c2c(Nc3ccccn3)[nH]c3c(C4=CCCCC4)c(-c4ccccc4)nn3c2=O)cc1 | – | LC-MS/MS non-compartmental | human, plasma | oral, 50 mg once daily, cycle 1 | AUC(0-inf) observed | 105 µg·h/mL |
| CN1CCN(c2cnc3c(C4CCN(C(=O)c5ccc(OC(F)(F)F)cc5N)CC4)ncnc3c2)CC1 | HTR2A (Homo sapiens, UniProt P28223) | ligand displacement | – | 10 µM | inhibition | 4.33% |

A few entries again (block 1):
| Compound | viability [%] |
| --- | --- |
| Cc1nc(Nc2cnn(C3CCNCC3)c2)nc2c1N(C)C(=O)c1cc3ccccc3cc1N2C | 72.1 |
| CO[C@H]1C[C@@H]2CC[C@@H](C)[C@@](O)(O2)C(=O)C(=O)N2CCCC[C@H]2C(=O)O[C@H]([C@H](C)C[C@@H]2CC[C@@H](OC(=O)C(C)(CO)CO)[C@H](OC)C2)CC(=O)[C@H](C)/C=C(\C)[C@@H](O)[C@@H](OC)C(=O)[C@H](C)C[C@H](C)/C=C/C=C/C=C/1C | 43.2 |
